Measured values of several laboratories.
Protocols differ between the studies behind these lines.
Target: Muscarinic acetylcholine receptor M3 (CHRM3, Homo sapiens, UniProt P20309)
UniProt P20309, sequence (whole entry, looked up): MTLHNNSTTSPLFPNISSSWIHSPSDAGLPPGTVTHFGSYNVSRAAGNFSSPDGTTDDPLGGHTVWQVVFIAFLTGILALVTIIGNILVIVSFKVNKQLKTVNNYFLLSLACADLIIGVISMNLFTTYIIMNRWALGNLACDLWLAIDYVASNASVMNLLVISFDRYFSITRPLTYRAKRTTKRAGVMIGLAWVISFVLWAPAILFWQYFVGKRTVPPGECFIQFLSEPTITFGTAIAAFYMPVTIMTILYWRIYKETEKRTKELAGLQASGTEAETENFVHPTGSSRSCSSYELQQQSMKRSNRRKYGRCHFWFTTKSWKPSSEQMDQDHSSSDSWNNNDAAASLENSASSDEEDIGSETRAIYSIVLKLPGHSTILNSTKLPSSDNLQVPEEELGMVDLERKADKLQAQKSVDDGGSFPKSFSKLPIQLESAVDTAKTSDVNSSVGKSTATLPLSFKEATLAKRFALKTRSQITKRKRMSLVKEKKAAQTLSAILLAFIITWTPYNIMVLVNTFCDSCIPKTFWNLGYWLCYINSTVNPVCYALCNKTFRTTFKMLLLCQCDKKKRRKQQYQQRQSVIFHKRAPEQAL

Clc1cccc(N2CCNCC2)c1Cl — Emax (ERK1/2 phosphorylation, agonist; CHO cells): < 10%
O=C(Nc1cnccc1Cl)N1CCN(Cc2ccc3c(c2)OC(F)(F)O3)CC1 — inhibition (binding; 10 µM, together with: [3H]N-methylscopolamine): 7%
Nc1ncc(-c2nc(N3CCOCC3)nc(N3CCOCC3)n2)c(C(F)F)n1 — radioligand binding (10 µM, together with: antagonist radioligand): 116%
CN1CCN(c2cc(-c3ccncc3)c(-c3ccc4ccccc4c3)nn2)CC1 — activation (agonist, FLIPR; 12.5 µM): -0.7%
Cn1cccc1-c1cccnc1 — inhibition (binding; 50 µM): -9.79%
CCN(CC)CCCC[C@H](NC(=O)[C@H](CC(C)C)NC(=O)[C@H](C)NC(=O)[C@H](Cc1ccccc1)NC(=O)c1ccc(C(C)(C)C)cc1)C(=O)N[C@@H](CO)C(=O)OC — specific binding (antagonist, radioligand binding; 10 µM; reference: control binding): 93.2%
Cc1ccc(S(=O)(=O)n2c(N)nc3ccccc32)cc1 — inhibition (10 µM): 73.2%
O=C(Nc1cccnn1)N1CCC(=Cc2cccc(Oc3ccc(C(F)(F)F)cn3)c2)CC1 — inhibition (binding; 50 µM, together with: [3H]N-methylscopolamine): 28%
c1cc(N2CCNCC2)c2cc[nH]c2c1 — Emax (ERK1/2 phosphorylation, agonist; CHO cells): < 10%

Repeated from above:
Cn1cccc1-c1cccnc1 — inhibition (binding; 50 µM): -9.79%
